Results pooled from the literature.
Parts stem from different laboratories: compare values within a part only. Changes are numbered by the printed parent chain.

Study 1
Target: CCND1, cyclin fold, Cln2 fusion (human)
Method: yeast growth competition, sequencing
Medium: yeast
Setting: weak parent motif
Reference: not given
Direction: higher = stronger binding
Endpoint: normalised enrichment score
Parent: CUX1 docking peptide (human); SRIRRELFIEEIQ
R5K: 0.231
I3A: 1.34
R5A L7A: 0.407
Q13A: -0.134
R2A: 0.388
R5K F8L: 0.409
R4A: 1.02
I12A: -0.137
I9A: 0.155
R5A: 0.396

Study 2
Target: Sal-like protein 4, full length isoform B (SALL4, Homo sapiens, UniProt Q9UJQ4-2, residues 1-616)
Method: universal PBM
Form: double-stranded DNA, one strand shown
Medium: in vitro
Tested at: not given
Setting: 8-mer, flanks averaged, mean of replicates
Direction: higher = stronger binding
Endpoint: E-score
ATGTCTAC: 0.0614
AACGGACG: -0.197
CGCTATCA: -0.0233
CTGGCCAG: -0.249
CGTGGGGC: -0.32
ACATTTTC: 0.159
AGTGACAC: -0.0249
AGGACATG: 0.0314
GCGGATGA: -0.0118
CGCACATC: -0.0849
GCCTTCGA: -0.112
CAAGCCAG: -0.233
AGTATAGG: 0.119
TGAATCCA: 0.131
CGGCTCGC: -0.168
AATCTCAT: 0.287
ACCACTCA: -0.0254
CCCGTGAG: -0.278
CTGCCCAC: -0.176
CCTCGAGC: -0.194
GCGCGAGA: -0.0858

Study 3
Target: Interferon regulatory factor 5, full length, phosphomimetic (IRF5, Homo sapiens, UniProt Q13568-2, residues 1-514, K96S/S451D/S453D/S456D/S462D)
Method: protein-binding microarray
Form: double-stranded DNA, one strand shown
Medium: in vitro
Tested at: 250 nM
Setting: 60-bp whole probe
Added: salmon DNA 0.4 mg/ml
Reference: random background probes
Direction: higher = stronger binding
Endpoint: log fluorescence
Constant ends, left off below: GCCTAGCAC … GTCTTGATTCGCTTGACGCTGCTG
TTAGAACTGCTTCTCCTTTAGTGCTAG: 0.00814 z-score
TACGGTCTCCTTCTCCTGACGTGCTAG: 0.0441 z-score
GACGGTCTCGGACTGGTGACGTGCTAG: -0.463 z-score
GACGGTTTCCTTATTCTGACGTGCTAG: 0.737 z-score
ATAGGTCTCCTTTTCCTTTAGTGCTAG: 0.111 z-score
GGCGGTTTCGGTCTCGGGACGTGCTAG: 9.16 z-score
GGAGCGCCAGGCCCCGGCAGGTGCTAG: -1.18 z-score
TTAGGCATCGGGACTGGGTTAGTGCTA: -0.498 z-score
TTAGGTTTCGGTATCGGATAGTGCTAG: 10.7 z-score
GACTATTTCAGTATCGAGACGTGCTAG: 3.91 z-score
CACCCACTCTTTCCTCACCATGTGCTA: 0.244 z-score
TCAGGAAACTTAAACTAGACTGTGCTA: 0.563 z-score
TCAGTTCTGCTTTGCCTACTGTGCTAG: 0.263 z-score
TTAGGTCTCCTTTTCCTTTAGTGCTAG: 0.249 z-score
ATGTAATTCCTGCCTGAGCTCGTGCTA: 0.11 z-score
CTTTGACTCTTTCTGTCAGTGTGCTAG: 2.63 z-score
GACGATCTCAGTCTCGCGACGTGCTAG: -0.336 z-score
TTACGTTTCGGTATCGGTTAGTGCTAG: 11.5 z-score
GAGGGACTGGGGTATCGGGACGTGCTA: 0.131 z-score

Study 4
Target: JDP2, bZIP domain (human)
Method: DHFR protein complementation
Medium: yeast
Setting: single substitutions, most at no-binding floor
Reference: wild-type JUN-FOS pair
Direction: higher = stronger binding
Endpoint: binding fitness
Parent: JUN, bZIP domain (human); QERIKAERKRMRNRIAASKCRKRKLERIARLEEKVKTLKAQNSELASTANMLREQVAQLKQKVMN; partner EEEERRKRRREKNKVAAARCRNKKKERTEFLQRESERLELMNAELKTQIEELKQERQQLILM
K36G: 0.313 natural log
L38S: -0.0314 natural log
E32H: 0.161 natural log
L45V: -0.212 natural log
A46L: 0.275 natural log
I28D: 0.251 natural log
T48A: 0.276 natural log
S47T: 0.225 natural log
Q55P: -0.9 natural log
K34I: 0.212 natural log
E54H: 0.222 natural log
K39Y: 0.22 natural log
E33S: 0.216 natural log
E32Y: 0.0876 natural log
A40S: 0.32 natural log
K36R: 0.309 natural log
M51E: 0.305 natural log
S43P: -0.338 natural log
A29N: 0.295 natural log
V56L: 0.16 natural log
A29L: 0.105 natural log
L52W: 0.14 natural log

Study 5
Target: Ras GTPase-activating protein-binding protein 1, RRM domain (G3BP1, Homo sapiens, UniProt Q13283)
Chain of UniProt Q13283 (whole entry, looked up): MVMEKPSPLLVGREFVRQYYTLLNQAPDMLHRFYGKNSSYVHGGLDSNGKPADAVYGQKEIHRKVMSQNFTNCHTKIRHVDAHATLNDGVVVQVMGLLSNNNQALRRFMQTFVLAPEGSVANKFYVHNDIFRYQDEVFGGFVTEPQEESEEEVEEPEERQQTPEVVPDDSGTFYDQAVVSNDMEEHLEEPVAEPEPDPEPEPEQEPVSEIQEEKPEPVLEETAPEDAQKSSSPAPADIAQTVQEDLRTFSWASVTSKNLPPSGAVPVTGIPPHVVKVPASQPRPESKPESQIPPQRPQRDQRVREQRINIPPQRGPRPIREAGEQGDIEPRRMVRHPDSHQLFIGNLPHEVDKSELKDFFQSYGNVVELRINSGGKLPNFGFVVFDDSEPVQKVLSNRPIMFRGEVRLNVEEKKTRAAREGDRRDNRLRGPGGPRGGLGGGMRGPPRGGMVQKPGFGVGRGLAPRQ
Method: RNA Bind-n-Seq
Form: RNA
Medium: in vitro
Tested at: 1 µM
Setting: whole 134-nt RNA, ends assumed
Added: 150 mM KCl
Reference: input library
Direction: higher = stronger binding
Endpoint: log2 enrichment
Constant ends, left off below: GGGAGUUCUACAGUCCGACGAUC … UGGAAUUCUCGGGUGUCAAGG
CCUGUGCUACACAUCGUAUGUACCGAAUCAAACCCCCCCAAACCCCCAAACCCCCCCAAAAAAGUAUUAUGUUACGCCGUUCGGAUCUGC: -0.525
AAGUCCUGUGCUACACAUCGUAUGUACCGAAUCGGGAAAGGGGAAAGGGAAAGGGGAAAGUAUUAUGUUACGCCGUUCGGAUCUGCACUU: 0.613
AAGUCCUGUGCUACACAUCGUAUGUACCGAAUCGGGUUUUUGGGUUUGGGAAAGGGAAAGUAUUAUGUUACGCCGUUCGGAUCUGCACUU: 0.358
CACAGACAACACGCCCCCACACAGACACAGAGGGAAGGGGUUGGGAUGGGGACAGGGUGCACAGCAGGGCGGGGUAGGACCCCAGCCCCU: -0.119
UAACUUUAGAGGAGGAUCUGAUGGAUAUGGCAGUGGACGUGGAUUUGGGGAUGGCUAUAAUGGGUAUGGAGGAGGACCUGUAGGUGGCAA: -0.327
UUAGGGUCAUGUGAAGGUGGUGCGCUACUUAGUCAAAGAAGUCAAUCAGUUUCCAUCAGAUUCUGAAUGUAUGAGAUACAUAGCAACCAU: -0.166
UACCAUGGUGGAAGUUCCCGUUCUCGUAGCAGUAUUUUCCAUGCAGGAAAAAGCCAAGGACUACAUGAAAACAACAUACCUGACAAUGAA: 0.0268
CCUGUGCUACACAUCGUAUGUACCGAAUCGGGAAAAAAGGAAAAAAGGGGAAAAAAGGGGAAAGUAUUAUGUUACGCCGUUCGGAUCUGC: -0.06
UUCCUCAAGUCCUGUGCUACACAUCGUAUGUACCGAAUCGUGUGUGUGUGUAAAGUAUUAUGUUACGCCGUUCGGAUCUGCACUUCCAGC: -0.109
UGCAGAUUGAUGAGUAUGAUCACUCCAAGCCCAUCCAGGGGCAACAGAAGAAGCCCUUUGAGGUGCACUGGAGGAAGCACACCCUGUCCU: 0.0252
UGGGUGGUGGAUUUUGUUUAUUUUUUUAGCUCAUUUCCAGGGGUGGGAAUUUUUUUUUAAUAUGUGUCAUGAAUAAAGUUGUUUUUGAAA: 1.37
UGGGUUCUUAUUUCUAACUUGCAUAUGUUUUGUUUUUCAGAAGGAGUUGAGCCUUCCAAGAAGAGGCAGCUUGUAAGUAGAUGAUUAUUA: -0.249
CCUGUGCUACACAUCGUAUGUACCGAAUCGGGGAAAGGGGUUUUUGGGGUUUUUUUGGGGAAAGUAUUAUGUUACGCCGUUCGGAUCUGC: 0.695
UAACUUUAGAGGAGGAUCUGAUGGAUAUGGCAGUGGACGUGGAUUUGGGGAUGGCUAUAAUGGGUAUGGAGGAGGACCUGGAGGUGGCUA: -0.312

Study 6
Target: ABI1, truncated, D143A, DHFR fusion (Arabidopsis thaliana)
Method: DHFR PCA, deep sequencing
Medium: yeast
Setting: methotrexate growth selection, single substitutions
Added: (+)-ABA 0.032 µM
Reference: wild-type fitted maximum
Direction: higher = stronger binding
Endpoint: relative binding score
Parent: PYL1, truncated, DHFR fusion (Arabidopsis thaliana); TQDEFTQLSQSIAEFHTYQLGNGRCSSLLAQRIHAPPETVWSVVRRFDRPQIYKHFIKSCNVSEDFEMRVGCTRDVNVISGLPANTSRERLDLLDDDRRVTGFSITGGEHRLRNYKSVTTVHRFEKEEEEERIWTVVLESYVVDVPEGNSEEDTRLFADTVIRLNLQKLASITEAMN
G107D: 19.6%
Y53M: -6.89%
S80H: 17.7%
N22E: 51.7%
K58M: -6.09%
V137P: -4.29%
A175R: 21.4%
W41F: -15.7%
I57G: -3.1%
D75P: -1.38%
V44C: -1.01%
G71A: 2.58%
L91T: -3.1%
E139W: 4.3%
G81A: 9.57%
R88P: -1.37%
T173G: -0.684%
E174C: 0.983%
A30Y: 11.1%
T17K: 6.69%
R132F: 15.4%
Q31A: 4%
D153K: -2.14%
S59I: 13.4%
D159V: 1.22%

For quick reference, copied from above (study 3):
GACGGTTTCCTTATTCTGACGTGCTAG: 0.737 z-score
GAGGGACTGGGGTATCGGGACGTGCTA: 0.131 z-score
CTTTGACTCTTTCTGTCAGTGTGCTAG: 2.63 z-score
GGAGCGCCAGGCCCCGGCAGGTGCTAG: -1.18 z-score
TTACGTTTCGGTATCGGTTAGTGCTAG: 11.5 z-score
ATAGGTCTCCTTTTCCTTTAGTGCTAG: 0.111 z-score
GACGATCTCAGTCTCGCGACGTGCTAG: -0.336 z-score
TTAGAACTGCTTCTCCTTTAGTGCTAG: 0.00814 z-score
CACCCACTCTTTCCTCACCATGTGCTA: 0.244 z-score
GGCGGTTTCGGTCTCGGGACGTGCTAG: 9.16 z-score
ATGTAATTCCTGCCTGAGCTCGTGCTA: 0.11 z-score
GACTATTTCAGTATCGAGACGTGCTAG: 3.91 z-score
TTAGGCATCGGGACTGGGTTAGTGCTA: -0.498 z-score
TCAGTTCTGCTTTGCCTACTGTGCTAG: 0.263 z-score
